{"data": "Assay results pooled from the literature", "note": "Each numbered part is a random draw from the data of one study; scales do not carry over between parts.", "UniProt P10721, sequence (whole entry, unmodified, looked up)": "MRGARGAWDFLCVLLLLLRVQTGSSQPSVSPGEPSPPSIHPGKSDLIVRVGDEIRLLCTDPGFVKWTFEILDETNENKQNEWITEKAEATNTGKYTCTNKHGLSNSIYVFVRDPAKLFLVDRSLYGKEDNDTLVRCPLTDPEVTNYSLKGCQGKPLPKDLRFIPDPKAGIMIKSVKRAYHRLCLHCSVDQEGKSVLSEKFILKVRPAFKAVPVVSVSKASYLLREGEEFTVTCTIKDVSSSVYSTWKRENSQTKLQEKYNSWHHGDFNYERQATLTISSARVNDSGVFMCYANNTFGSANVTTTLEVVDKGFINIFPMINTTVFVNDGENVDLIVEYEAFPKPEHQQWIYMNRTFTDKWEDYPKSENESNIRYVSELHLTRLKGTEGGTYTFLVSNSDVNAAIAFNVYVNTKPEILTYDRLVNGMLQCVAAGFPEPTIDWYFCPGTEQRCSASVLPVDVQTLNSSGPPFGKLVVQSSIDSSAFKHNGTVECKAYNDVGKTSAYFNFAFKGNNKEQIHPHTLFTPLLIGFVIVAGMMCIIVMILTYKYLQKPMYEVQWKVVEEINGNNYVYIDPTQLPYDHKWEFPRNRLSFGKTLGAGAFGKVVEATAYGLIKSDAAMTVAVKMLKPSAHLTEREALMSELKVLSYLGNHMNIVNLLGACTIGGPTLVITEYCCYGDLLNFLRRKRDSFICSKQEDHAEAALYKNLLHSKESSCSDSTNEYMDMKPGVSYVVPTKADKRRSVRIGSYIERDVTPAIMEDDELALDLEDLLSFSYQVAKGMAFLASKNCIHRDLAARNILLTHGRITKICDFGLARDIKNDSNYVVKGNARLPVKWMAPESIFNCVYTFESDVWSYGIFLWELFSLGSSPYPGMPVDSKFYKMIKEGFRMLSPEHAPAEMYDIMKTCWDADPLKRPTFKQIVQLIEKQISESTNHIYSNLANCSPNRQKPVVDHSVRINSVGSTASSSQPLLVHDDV", "UniProt P21802, sequence (whole entry, looked up)": "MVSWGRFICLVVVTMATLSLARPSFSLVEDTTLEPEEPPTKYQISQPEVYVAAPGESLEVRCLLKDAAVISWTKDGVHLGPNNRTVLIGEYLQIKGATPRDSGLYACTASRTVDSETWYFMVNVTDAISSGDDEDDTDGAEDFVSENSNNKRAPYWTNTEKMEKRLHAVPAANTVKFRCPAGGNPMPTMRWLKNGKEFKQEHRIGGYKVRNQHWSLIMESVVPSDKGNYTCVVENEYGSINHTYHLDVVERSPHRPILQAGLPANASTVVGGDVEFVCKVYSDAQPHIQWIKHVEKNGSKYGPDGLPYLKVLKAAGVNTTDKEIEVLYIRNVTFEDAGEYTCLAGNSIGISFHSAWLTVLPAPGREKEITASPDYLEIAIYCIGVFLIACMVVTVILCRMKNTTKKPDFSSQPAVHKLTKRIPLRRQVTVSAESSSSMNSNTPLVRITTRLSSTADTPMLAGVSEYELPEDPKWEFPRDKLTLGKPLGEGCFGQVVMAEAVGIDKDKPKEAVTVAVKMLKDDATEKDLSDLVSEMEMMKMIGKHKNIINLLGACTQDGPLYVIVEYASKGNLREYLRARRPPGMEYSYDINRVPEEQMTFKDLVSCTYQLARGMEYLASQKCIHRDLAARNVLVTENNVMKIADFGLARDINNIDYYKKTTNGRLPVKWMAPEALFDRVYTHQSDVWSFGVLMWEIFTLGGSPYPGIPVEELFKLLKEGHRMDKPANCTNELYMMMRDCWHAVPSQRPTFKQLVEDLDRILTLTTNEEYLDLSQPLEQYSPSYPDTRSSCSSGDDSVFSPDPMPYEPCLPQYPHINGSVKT", "UniProt P54756, sequence (whole entry, looked up)": "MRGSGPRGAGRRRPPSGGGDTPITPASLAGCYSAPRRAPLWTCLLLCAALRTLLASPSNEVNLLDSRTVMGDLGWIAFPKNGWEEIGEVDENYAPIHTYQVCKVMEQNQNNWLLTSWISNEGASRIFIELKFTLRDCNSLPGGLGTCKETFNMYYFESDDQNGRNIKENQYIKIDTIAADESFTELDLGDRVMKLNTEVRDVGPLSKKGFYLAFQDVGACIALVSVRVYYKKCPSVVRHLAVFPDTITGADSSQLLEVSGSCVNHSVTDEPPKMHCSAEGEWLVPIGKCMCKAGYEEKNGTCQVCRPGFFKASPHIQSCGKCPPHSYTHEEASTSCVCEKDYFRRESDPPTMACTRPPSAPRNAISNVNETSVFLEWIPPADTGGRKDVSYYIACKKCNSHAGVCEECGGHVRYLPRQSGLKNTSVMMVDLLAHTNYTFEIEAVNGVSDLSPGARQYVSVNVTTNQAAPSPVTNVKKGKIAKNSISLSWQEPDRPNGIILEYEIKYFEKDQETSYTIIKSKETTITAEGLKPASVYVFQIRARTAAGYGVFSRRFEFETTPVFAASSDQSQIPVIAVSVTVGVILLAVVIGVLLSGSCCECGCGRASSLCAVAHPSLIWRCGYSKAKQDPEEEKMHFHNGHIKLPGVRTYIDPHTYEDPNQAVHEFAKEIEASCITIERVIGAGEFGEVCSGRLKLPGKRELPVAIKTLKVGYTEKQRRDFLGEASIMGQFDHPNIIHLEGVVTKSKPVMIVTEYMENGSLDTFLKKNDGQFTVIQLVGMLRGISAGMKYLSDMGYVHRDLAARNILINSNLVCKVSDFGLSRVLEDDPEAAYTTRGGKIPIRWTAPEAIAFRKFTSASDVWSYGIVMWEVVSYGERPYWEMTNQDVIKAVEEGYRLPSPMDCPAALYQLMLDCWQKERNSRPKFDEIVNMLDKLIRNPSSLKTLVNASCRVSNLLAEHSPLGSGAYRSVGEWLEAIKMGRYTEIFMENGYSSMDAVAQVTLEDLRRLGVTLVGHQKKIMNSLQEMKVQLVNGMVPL", "UniProt P54760, sequence (whole entry, looked up)": "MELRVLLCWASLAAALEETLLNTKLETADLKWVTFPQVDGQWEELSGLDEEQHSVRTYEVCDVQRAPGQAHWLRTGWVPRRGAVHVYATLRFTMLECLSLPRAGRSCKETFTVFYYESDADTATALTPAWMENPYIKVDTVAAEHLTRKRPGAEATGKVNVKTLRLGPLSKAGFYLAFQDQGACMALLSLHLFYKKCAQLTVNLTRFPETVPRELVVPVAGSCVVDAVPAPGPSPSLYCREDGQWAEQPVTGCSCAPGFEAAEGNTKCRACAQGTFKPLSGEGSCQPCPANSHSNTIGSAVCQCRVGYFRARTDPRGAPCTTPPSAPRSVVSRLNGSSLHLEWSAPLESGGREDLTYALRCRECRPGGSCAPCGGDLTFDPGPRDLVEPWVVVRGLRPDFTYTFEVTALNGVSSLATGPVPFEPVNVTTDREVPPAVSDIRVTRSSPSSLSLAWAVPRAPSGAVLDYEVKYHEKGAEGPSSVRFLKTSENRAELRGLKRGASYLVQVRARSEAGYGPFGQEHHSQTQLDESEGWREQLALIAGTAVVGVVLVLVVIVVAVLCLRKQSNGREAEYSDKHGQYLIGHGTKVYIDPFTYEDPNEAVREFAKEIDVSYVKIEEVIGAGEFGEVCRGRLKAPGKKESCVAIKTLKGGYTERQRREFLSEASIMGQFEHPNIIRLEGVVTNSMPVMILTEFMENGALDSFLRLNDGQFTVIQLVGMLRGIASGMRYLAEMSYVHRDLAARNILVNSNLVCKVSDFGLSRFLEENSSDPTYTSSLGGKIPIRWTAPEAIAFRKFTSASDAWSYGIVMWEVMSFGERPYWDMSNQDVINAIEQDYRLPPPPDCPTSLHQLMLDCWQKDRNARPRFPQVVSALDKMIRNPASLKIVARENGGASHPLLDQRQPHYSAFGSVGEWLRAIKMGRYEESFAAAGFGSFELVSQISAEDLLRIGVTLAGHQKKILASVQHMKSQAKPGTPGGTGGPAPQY", "UniProt Q9C098, sequence (whole entry, looked up)": "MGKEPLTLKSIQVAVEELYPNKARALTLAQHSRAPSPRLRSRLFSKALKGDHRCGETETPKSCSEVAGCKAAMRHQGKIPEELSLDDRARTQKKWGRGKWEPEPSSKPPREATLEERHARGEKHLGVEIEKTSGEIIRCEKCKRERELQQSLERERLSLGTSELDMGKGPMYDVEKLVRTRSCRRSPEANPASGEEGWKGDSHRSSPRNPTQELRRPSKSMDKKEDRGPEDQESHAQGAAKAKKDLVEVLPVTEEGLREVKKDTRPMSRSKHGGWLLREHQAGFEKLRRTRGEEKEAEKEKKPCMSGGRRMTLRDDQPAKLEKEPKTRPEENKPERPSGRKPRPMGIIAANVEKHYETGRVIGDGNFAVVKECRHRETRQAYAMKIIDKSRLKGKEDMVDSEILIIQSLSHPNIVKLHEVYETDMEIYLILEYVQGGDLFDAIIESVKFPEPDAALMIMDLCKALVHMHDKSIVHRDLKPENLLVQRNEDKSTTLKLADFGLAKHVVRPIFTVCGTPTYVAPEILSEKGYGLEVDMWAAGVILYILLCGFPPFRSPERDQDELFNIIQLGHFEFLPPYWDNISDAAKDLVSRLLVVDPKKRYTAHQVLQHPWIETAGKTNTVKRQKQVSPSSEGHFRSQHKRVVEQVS"}
{"data": "Block 1", "Structure (SMILES)": "CN(C)C(=O)Cn1cc(-c2nc(C3(c4ccc(-c5cnc(N)nc5)cc4)CC3)no2)cn1", "method": "competition with immobilised ligand", "tested at": "1 µM"}
{"target": "FGFR2 (Homo sapiens, UniProt P21802)", "effect on": "cell-free assay", "remaining binding [%]": 100}
{"target": "PAK2 (Homo sapiens, UniProt Q13177)", "effect on": "cell-free assay", "remaining binding [%]": 100}
{"target": "SGK3 (Homo sapiens, UniProt Q96BR1)", "effect on": "cell-free assay", "remaining binding [%]": 75}
{"target": "ERBB3 (Homo sapiens, UniProt P21860)", "effect on": "cell-free assay", "remaining binding [%]": 87}
{"target": "CLK4 (Homo sapiens, UniProt Q9HAZ1)", "effect on": "cell-free assay", "remaining binding [%]": 89}
{"target": "KIT (Homo sapiens, UniProt P10721, T670I/V559D)", "effect on": "cell-free assay", "remaining binding [%]": 100}
{"target": "CILK1 (Homo sapiens, UniProt Q9UPZ9)", "effect on": "binding", "remaining binding [%]": 76}
{"target": "DCLK3 (Homo sapiens, UniProt Q9C098)", "effect on": "cell-free assay", "remaining binding [%]": 100}
{"target": "SBK3 (Homo sapiens, UniProt P0C264)", "effect on": "cell-free assay", "remaining binding [%]": 99}
{"target": "EPHA5 (Homo sapiens, UniProt P54756)", "effect on": "cell-free assay", "remaining binding [%]": 41}
{"target": "NTRK2 (Homo sapiens, UniProt Q16620)", "effect on": "cell-free assay", "remaining binding [%]": 100}
{"target": "TNK1 (Homo sapiens, UniProt Q13470)", "effect on": "cell-free assay", "remaining binding [%]": 96}
{"target": "BMX (Homo sapiens, UniProt P51813)", "effect on": "cell-free assay", "remaining binding [%]": 88}
{"target": "HIPK1 (Homo sapiens, UniProt Q86Z02)", "effect on": "cell-free assay", "remaining binding [%]": 63}
{"target": "KIT (Homo sapiens, UniProt P10721, D816V)", "effect on": "cell-free assay", "remaining binding [%]": 92}
{"target": "CIT (Homo sapiens, UniProt O14578)", "effect on": "cell-free assay", "remaining binding [%]": 86}
{"target": "Tyrosine-protein kinase ABL1, phosphorylated (ABL1, Homo sapiens, UniProt P00519, M351T)", "effect on": "cell-free assay", "remaining binding [%]": 100}
{"target": "PLK2 (Homo sapiens, UniProt Q9NYY3)", "effect on": "cell-free assay", "remaining binding [%]": 93}
{"target": "CDKL1 (Homo sapiens, UniProt Q00532)", "effect on": "cell-free assay", "remaining binding [%]": 100}
{"target": "NEK10 (Homo sapiens, UniProt Q6ZWH5)", "effect on": "cell-free assay", "remaining binding [%]": 99}
{"target": "PKN1 (Homo sapiens, UniProt Q16512)", "effect on": "cell-free assay", "remaining binding [%]": 84}
{"target": "PIKFYVE (Homo sapiens, UniProt Q9Y2I7)", "effect on": "cell-free assay", "remaining binding [%]": 98}
{"target": "SNRK (Homo sapiens, UniProt Q9NRH2)", "effect on": "cell-free assay", "remaining binding [%]": 100}
{"target": "KIT (Homo sapiens, UniProt P10721, V559D/V654A)", "effect on": "cell-free assay", "remaining binding [%]": 100}
{"target": "MAP2K2 (Homo sapiens, UniProt P36507)", "effect on": "cell-free assay", "remaining binding [%]": 80}
{"data": "Block 2", "cell line": "mouse MPNST tumor cells", "method": "high-content nuclear imaging", "measured": "cell number", "tested at": "10 µM", "time": "12 h", "setting": "mean of 2 replicates", "baseline": "plate mean", "direction": "higher = more cells"}
{"Structure (SMILES)": "O=C(NNS(=O)(=O)c1ccccc1F)c1cc(F)cc(-c2ccccn2)c1", "nuclei count": "0.606 z-score"}
{"Structure (SMILES)": "Cc1cccc(-c2[nH]ncc2-c2ccnc3ccccc23)n1", "nuclei count": "-1.76 z-score"}
{"Structure (SMILES)": "CC(C)(O)C(=O)N1CCN(c2ccc(C(F)(F)F)c(C3=C(c4c[nH]c5ccccc45)C(=O)NC3=O)c2)CC1", "nuclei count": "-1.06 z-score"}
{"Structure (SMILES)": "CCc1ccc(C=CC(=O)Nc2ccc(C(C)=O)cc2)o1", "nuclei count": "1.87 z-score"}
{"Structure (SMILES)": "CC(C)(S)C(N)C(=O)O (racemic)", "nuclei count": "1.04 z-score"}
{"Structure (SMILES)": "CN/C(=N\\c1ccc(C2=NNC(=O)CC2C)cc1)NC#N (centres unmarked)", "nuclei count": "1.71 z-score"}
{"data": "Block 3", "target": "Calcium/calmodulin-dependent protein kinase type II subunit alpha (CAMK2A, Homo sapiens, UniProt Q9UQM7)", "effect on": "enzyme activity", "mode": "inhibitor", "tested at": "10 µM", "UniProt Q9UQM7, sequence (whole entry, looked up)": "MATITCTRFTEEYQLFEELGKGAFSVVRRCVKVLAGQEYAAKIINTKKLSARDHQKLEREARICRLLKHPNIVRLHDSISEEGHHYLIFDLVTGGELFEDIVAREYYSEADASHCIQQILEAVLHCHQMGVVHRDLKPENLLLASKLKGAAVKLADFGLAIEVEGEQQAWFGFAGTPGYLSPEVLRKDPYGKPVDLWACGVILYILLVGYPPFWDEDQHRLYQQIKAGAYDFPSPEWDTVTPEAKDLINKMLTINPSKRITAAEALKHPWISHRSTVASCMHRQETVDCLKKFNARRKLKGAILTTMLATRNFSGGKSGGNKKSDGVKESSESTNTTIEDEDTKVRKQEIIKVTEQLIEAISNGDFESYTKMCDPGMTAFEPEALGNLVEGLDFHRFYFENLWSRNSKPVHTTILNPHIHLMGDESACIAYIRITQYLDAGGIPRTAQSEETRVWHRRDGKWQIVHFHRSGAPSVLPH"}
{"SMILES": "C[C@@H]1O[C@H]2O[C@H]3[C@@H](OC[C@H](O)[C@@H]3O)OC(=O)[C@]34CCC(C)(C)C[C@H]3C3=CC[C@@H]5[C@@]6(C)C[C@H](O)[C@H](O[C@@H]7O[C@H](CO)[C@@H](O)[C@H](O)[C@H]7O[C@@H]7OC[C@H](OC(=O)C[C@](C)(O)CC(=O)O[C@@H]1[C@@H](O[C@@H]1OC[C@@H](O)[C@H](O)[C@H]1O)[C@H]2O)[C@H](O)[C@H]7O)[C@@](C)(CO)[C@@H]6CC[C@@]5(C)[C@]3(C)C[C@H]4O", "inhibition [%]": 6}
{"SMILES": "O=C1N[C@@H](Cc2ccc(O)cc2)C(=O)N2CCC[C@@H]12", "inhibition [%]": -23}
{"SMILES": "CCN(CC)CCOC(=O)C(c1ccccc1)c1ccccc1", "inhibition [%]": -10}
{"SMILES": "OCc1ccccc1O", "inhibition [%]": -2}
{"SMILES": "O=C(CCCN1CC=C(n2c(=O)[nH]c3ccccc32)CC1)c1ccc(F)cc1", "inhibition [%]": -10}
{"data": "Block 4", "host": "mouse", "medium": "microsomes or S9", "tested at": "2 µM", "time": "0.5 h"}
{"SMILES": "O=C1CC(C2CCCCC2)c2cnn(Cc3cccs3)c2N1 (centres unmarked)", "remaining compound": "1.36%"}
{"SMILES": "Cc1ccc(S(=O)(=O)N[C@@H]2c3c(Cl)cccc3[C@H](C(=O)OC(C)C)[C@H]2C(=O)OC(C)C)cc1", "remaining compound": "< 1%"}
{"SMILES": "CCOC(=O)c1cc(-c2ccc(S(=O)(=O)NC(C)(C)CC)s2)on1", "remaining compound": "0%"}
{"SMILES": "CC1(C)Cc2c(c(N3CCOCC3)nc3sc4c(=O)n(CCc5ccccc5)cnc4c23)CO1", "remaining compound": "14.4%"}
{"SMILES": "Clc1ccc(Oc2nc3ccccc3o2)c2ncccc12", "remaining compound": "0%"}
{"SMILES": "COC(=O)c1c(C)[nH]c(C(=O)CN2CCCC2c2nc3ccccc3s2)c1C (centres unmarked)", "remaining compound": "0.758%"}
{"data": "Block 5", "SMILES": "O=C(Nc1cnn(-c2csc(C(=O)NC3COC3)c2)c1)Nc1ccccc1Cl", "effect on": "enzyme activity", "tested at": "5 µM"}
{"target": "CDC42BPA (Homo sapiens, UniProt Q5VT25)", "baseline": "untreated control", "remaining activity [%]": 96.2}
{"target": "EPHB4 (Homo sapiens, UniProt P54760)", "baseline": "untreated control", "remaining activity [%]": 97}
{"target": "CAMK2D (Homo sapiens, UniProt Q13557)", "baseline": "untreated control", "remaining activity [%]": 102}
{"target": "PBK (Homo sapiens, UniProt Q96KB5)", "mode": "inhibitor", "remaining activity [%]": 115}
{"target": "SIK3 (Homo sapiens, UniProt Q9Y2K2)", "baseline": "untreated control", "remaining activity [%]": 91.6}
{"target": "Cyclin-dependent kinase 6, with cyclin D1 (CDK6, Homo sapiens, UniProt Q00534)", "baseline": "untreated control", "remaining activity [%]": 95.1}
{"target": "TSSK6 (Homo sapiens, UniProt Q9BXA6)", "baseline": "untreated control", "remaining activity [%]": 102}
{"target": "EPHA2 (Homo sapiens, UniProt P29317)", "baseline": "untreated control", "remaining activity [%]": 95.4}
{"note": "Some of these lines once more (block 1):"}
{"target": "Tyrosine-protein kinase ABL1, phosphorylated (ABL1, Homo sapiens, UniProt P00519, M351T)", "effect on": "cell-free assay", "remaining binding [%]": 100}
{"target": "ERBB3 (Homo sapiens, UniProt P21860)", "effect on": "cell-free assay", "remaining binding [%]": 87}
{"target": "PKN1 (Homo sapiens, UniProt Q16512)", "effect on": "cell-free assay", "remaining binding [%]": 84}
{"target": "CILK1 (Homo sapiens, UniProt Q9UPZ9)", "effect on": "binding", "remaining binding [%]": 76}
{"target": "NEK10 (Homo sapiens, UniProt Q6ZWH5)", "effect on": "cell-free assay", "remaining binding [%]": 99}
{"target": "KIT (Homo sapiens, UniProt P10721, V559D/V654A)", "effect on": "cell-free assay", "remaining binding [%]": 100}
{"target": "FGFR2 (Homo sapiens, UniProt P21802)", "effect on": "cell-free assay", "remaining binding [%]": 100}
{"target": "MAP2K2 (Homo sapiens, UniProt P36507)", "effect on": "cell-free assay", "remaining binding [%]": 80}
